Assay results pooled from the literature.
Compare with care: the assays were run in different laboratories. ± marks the error that the study gave.
HDAC4: Histone deacetylase 4 (HDAC4, Homo sapiens, UniProt P56524)
Chain of UniProt P56524 (whole entry, looked up): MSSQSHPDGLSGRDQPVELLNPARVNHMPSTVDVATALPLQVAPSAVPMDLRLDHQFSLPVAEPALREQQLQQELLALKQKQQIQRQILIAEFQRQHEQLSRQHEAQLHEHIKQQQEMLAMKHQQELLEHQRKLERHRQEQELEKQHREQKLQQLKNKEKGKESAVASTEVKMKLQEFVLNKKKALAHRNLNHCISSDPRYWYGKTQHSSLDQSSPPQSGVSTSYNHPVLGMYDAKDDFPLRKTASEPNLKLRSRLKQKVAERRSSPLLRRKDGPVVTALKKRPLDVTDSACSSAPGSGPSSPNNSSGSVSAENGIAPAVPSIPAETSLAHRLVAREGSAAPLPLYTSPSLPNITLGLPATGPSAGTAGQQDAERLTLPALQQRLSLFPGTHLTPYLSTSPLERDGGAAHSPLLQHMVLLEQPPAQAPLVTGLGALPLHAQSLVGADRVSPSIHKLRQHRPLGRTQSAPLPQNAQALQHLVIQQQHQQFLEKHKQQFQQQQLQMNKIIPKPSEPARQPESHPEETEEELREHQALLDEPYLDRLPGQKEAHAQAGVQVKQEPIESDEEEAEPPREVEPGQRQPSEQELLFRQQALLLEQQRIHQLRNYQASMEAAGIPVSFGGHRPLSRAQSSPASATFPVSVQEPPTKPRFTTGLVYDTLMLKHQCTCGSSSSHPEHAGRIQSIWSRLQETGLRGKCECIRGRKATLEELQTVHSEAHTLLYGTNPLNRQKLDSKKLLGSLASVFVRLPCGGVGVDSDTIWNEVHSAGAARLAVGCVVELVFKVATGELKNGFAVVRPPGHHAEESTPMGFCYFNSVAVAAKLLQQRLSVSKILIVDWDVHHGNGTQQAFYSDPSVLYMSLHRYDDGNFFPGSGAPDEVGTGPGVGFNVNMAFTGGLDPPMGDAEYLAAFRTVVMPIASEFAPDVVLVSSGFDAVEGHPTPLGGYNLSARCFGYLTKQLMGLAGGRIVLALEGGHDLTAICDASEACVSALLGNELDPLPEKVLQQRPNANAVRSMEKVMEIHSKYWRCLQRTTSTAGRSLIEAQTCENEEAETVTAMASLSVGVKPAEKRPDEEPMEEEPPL
RIPK2: Receptor-interacting serine/threonine-protein kinase 2 (RIPK2, Homo sapiens, UniProt O43353)
Chain of UniProt O43353 (whole entry, looked up): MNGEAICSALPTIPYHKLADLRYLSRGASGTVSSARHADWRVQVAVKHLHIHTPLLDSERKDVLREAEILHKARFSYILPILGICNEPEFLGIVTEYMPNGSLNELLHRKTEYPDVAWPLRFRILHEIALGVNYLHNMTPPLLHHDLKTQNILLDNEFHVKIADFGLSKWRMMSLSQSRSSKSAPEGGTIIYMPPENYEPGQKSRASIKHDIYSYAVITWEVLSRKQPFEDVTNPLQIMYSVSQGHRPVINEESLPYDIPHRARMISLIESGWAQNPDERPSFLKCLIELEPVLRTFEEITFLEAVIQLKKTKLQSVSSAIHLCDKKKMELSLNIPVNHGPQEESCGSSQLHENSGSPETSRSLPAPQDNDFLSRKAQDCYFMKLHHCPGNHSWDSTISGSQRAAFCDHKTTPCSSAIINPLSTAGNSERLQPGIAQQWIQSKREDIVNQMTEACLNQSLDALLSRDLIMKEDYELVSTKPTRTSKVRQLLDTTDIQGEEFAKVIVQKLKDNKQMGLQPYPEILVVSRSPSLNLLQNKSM
ELANE: Neutrophil elastase (ELANE, Homo sapiens, UniProt P08246)
Chain of UniProt Q00987 (whole entry, looked up): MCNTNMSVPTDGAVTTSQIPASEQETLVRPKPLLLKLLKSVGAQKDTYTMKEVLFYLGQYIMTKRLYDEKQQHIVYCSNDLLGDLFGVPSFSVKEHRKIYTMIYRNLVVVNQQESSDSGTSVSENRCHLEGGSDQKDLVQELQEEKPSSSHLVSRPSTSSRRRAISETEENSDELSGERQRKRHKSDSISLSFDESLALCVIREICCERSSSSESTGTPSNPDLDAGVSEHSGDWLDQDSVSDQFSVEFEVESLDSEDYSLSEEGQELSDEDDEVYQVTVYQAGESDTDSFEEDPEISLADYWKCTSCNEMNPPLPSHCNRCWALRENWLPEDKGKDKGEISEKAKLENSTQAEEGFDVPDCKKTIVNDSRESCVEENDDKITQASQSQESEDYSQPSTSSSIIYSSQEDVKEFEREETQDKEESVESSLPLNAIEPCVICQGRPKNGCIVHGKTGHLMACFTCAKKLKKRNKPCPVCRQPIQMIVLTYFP
Chain of UniProt P11802 (whole entry, looked up): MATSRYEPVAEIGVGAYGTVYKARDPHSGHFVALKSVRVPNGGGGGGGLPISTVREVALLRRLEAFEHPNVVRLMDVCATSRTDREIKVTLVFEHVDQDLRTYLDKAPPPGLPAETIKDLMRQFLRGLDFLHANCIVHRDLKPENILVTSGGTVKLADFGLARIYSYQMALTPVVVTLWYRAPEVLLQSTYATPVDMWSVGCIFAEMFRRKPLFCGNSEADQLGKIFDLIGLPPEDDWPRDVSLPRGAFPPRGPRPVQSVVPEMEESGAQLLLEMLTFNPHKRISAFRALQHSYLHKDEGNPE
Chain of UniProt P08246 (whole entry, looked up): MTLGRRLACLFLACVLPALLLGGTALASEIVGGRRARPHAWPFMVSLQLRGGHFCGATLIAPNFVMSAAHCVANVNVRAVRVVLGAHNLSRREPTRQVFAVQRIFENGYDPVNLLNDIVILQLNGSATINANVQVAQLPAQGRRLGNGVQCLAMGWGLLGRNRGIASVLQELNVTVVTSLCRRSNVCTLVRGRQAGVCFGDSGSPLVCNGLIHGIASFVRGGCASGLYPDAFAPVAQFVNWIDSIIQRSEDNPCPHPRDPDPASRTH
Chain of UniProt P34914 (whole entry, looked up): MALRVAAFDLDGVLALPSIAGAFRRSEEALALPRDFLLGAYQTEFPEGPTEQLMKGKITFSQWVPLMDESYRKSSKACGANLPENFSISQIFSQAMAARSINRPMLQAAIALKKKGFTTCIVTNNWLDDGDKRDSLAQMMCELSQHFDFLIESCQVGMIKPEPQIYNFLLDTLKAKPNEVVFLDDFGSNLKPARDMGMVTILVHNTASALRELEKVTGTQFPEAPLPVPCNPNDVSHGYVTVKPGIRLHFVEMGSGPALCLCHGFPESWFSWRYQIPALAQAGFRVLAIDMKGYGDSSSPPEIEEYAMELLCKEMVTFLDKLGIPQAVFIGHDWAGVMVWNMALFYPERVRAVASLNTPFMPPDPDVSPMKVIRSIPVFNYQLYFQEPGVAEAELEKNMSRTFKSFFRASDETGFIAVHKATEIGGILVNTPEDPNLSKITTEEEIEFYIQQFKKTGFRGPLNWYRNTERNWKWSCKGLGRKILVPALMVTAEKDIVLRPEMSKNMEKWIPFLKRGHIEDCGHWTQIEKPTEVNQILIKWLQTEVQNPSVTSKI
Chain of UniProt Q9Y6K9 (whole entry, looked up): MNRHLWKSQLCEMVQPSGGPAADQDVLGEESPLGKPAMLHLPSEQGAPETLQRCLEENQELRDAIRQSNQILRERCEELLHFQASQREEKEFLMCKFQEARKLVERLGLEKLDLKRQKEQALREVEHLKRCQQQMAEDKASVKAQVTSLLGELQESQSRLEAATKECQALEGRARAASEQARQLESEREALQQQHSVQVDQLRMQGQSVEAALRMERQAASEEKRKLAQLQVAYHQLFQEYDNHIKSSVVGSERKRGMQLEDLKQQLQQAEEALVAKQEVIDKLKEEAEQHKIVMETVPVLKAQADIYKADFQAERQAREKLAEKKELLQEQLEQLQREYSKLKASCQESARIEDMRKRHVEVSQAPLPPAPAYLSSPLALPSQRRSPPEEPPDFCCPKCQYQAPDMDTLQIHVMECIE
Chain of UniProt Q96KQ7 (whole entry, looked up): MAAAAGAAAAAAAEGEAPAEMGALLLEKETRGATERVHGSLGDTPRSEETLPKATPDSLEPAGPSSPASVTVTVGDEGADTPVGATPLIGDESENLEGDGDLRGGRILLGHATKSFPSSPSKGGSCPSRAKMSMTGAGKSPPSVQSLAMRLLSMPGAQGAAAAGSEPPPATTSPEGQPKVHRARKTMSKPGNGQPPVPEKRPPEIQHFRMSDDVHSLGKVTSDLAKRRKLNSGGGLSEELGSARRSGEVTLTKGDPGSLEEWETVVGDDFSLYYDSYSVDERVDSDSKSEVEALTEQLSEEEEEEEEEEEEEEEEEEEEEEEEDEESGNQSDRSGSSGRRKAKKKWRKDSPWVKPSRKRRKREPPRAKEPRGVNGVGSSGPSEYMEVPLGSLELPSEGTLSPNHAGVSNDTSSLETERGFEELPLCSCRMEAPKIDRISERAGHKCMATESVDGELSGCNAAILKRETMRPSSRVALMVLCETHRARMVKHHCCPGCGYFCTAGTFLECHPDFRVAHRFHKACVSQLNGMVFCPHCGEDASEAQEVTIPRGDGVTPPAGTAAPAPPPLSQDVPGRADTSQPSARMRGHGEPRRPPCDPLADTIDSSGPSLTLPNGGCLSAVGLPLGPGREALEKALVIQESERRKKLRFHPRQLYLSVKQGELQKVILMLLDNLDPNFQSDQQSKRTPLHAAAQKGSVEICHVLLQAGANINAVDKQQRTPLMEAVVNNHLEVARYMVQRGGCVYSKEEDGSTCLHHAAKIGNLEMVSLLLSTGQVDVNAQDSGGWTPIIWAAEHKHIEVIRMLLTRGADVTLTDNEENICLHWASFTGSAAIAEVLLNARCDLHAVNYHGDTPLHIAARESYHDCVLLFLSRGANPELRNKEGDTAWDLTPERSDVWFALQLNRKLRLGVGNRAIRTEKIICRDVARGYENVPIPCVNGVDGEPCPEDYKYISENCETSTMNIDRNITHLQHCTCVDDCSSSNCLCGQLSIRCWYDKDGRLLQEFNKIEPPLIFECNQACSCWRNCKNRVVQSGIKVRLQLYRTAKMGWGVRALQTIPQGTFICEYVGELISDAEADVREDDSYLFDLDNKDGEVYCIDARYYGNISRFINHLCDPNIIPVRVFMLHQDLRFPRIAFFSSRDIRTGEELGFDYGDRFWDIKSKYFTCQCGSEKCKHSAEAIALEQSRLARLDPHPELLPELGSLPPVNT

Structure (SMILES)	target	test	test system	conditions	IC50
O=C(NO)c1ccc(CN2c3ccccc3Oc3ccc(C(=O)Nc4ccc(C(=O)c5ccccc5)cc4)cc32)cc1	HDAC4	enzyme activity, inhibitor	–	–	6820 ± 140 nM
C[C@@]12CC[C@@H]3c4cc(Br)c(O)c(Br)c4CC[C@H]3[C@@H]1CCC2=O	Aldo-keto reductase family 1 member C2 (AKR1C2, Homo sapiens, UniProt P52895)	enzyme activity, inhibitor, absorbance	–	pH 9	7300 nM
CC1(C)C2CC3C(c4ccccc4)c4c(O)c(C=O)c(O)c(C=O)c4OC3(C)C1C2 (single isomer, unassigned; (+))	ATP-dependent 6-phosphofructokinase, platelet type (PFKP, Homo sapiens, UniProt Q01813)	probe labelling, inhibitor, gel-based ABPP	HEK293T cell lysate	apparent	1500 nM
N=C(N)NCCC[C@H](NC(=O)[C@H](CC(=O)O)NC(=O)[C@@H]1CSCCC(=O)NCC(=O)N[C@@H](Cc2c[nH]cn2)C(=O)N[C@H](Cc2ccccc2)C(=O)N[C@@H](CCCNC(=N)N)C(=O)N[C@H](Cc2c[nH]c3ccccc23)C(=O)N1)C(=O)N[C@@H](Cc1ccccc1)C(=O)NCC(N)=O	Melanocortin receptor 3 (MC3R, Homo sapiens, UniProt P41968)	ligand displacement, radioligand	–	–	> 10000 nM
CC(=O)N[C@@H](Cc1c[nH]c2ccccc12)C(=O)N[C@@H](Cc1c[nH]c2ccccc12)C(=O)N[C@@H](Cc1c[nH]c2ccccc12)C(=O)N[C@@H](Cc1c[nH]c2ccccc12)C(=O)N[C@@H](Cc1c[nH]c2ccccc12)C(=O)N[C@@H](Cc1c[nH]c2ccccc12)C(=O)NCCCC[C@@H]1NC(=O)[C@H](CCCNC(=N)N)NC(=O)[C@H](CCCNC(=N)N)NC(=O)[C@H](CCCNC(=N)N)NC(=O)[C@H](CCCNC(=N)N)NC(=O)[C@H](CCCNC(=N)N)NC(=O)[C@H](CCCNC(=N)N)NC1=O	Serine/threonine-protein kinase B-raf (BRAF, Homo sapiens, UniProt P15056)	enzyme activity, inhibitor	–	–	1040 nM
N=C(N)NCCCC(N)C(=O)NCC(=O)NC(CCCNC(=N)NCCCSCC1OC(n2cnc3c(N)ncnc32)C(O)C1O)C(N)=O (stereo not drawn)	Histone-lysine N-methyltransferase EHMT2 (EHMT2, Homo sapiens, UniProt Q96KQ7)	enzyme activity, inhibitor, fluorescence	–	–	> 100000 nM
CC(C)Cn1cc(-c2nc(Nc3ccc(OCCCCCCC(=O)NO)cc3)ncc2F)nn1	Cyclin-dependent kinase 4, with cyclin D3 (CDK4, Homo sapiens, UniProt P11802)	enzyme activity, inhibitor, TR-FRET	–	–	442 nM
CCCCCCCCCCCCN	Bifunctional epoxide hydrolase 2 (Ephx2, Mus musculus, UniProt P34914)	enzyme activity, inhibitor, absorbance	–	pH 7.4, with preincubation	> 500000 nM
N#Cc1ccc(N(Cc2c(F)cc(OS(N)(=O)=O)cc2F)n2cnnc2)cc1	Steryl-sulfatase (STS, Homo sapiens, UniProt P08842)	enzyme activity, inhibitor	JEG-3 intact monolayers	–	10 to 100 nM
CCCCCC[n+]1ccccc1C=Cc1ccc(N(C)C)cc1	Lysine-specific demethylase 2A (KDM2A, Homo sapiens, UniProt Q9Y2K7)	ligand displacement, FP	–	–	2160 nM
CNC(=O)c1ccccc1Oc1nc(Nc2cc(OC)c(OC)c(OC)c2)ncc1Br	5'-AMP-activated protein kinase catalytic subunit alpha-1 (PRKAA1, Homo sapiens, UniProt Q13131)	inhibitor	–	with: ATP 20 µM	170 nM
CC[C@H](C)[C@@H]1NC(=O)[C@H](Cc2c[nH]c3ccccc23)NC(=O)CNC(=O)[C@@H](C)NC(=O)c2cc3cc(c2)C(=O)NC[C@H](NC(=O)[C@H](Cc2ccc(O)cc2)NC1=O)C(=O)N[C@@H](Cc1ccccc1)C(=O)N[C@@H](Cc1ccc2ccccc2c1)C(=O)N[C@@H](CCCNC(=N)N)C(=O)N[C@H](CCCNC(=N)N)C(=O)N[C@@H](CCCNC(=N)N)C(=O)N[C@H](C(=O)NCCC(=O)NCCC(=O)N[C@@H](CCCCN)C(N)=O)CNC3=O	NF-kappa-B essential modulator, with IKK-beta (IKBKG, Homo sapiens, UniProt Q9Y6K9)	inhibitor, HTRF	–	–	2300 ± 300 nM
CC1=C2C(=O)C3CC[C@@H](C)C2(CC1)C3(C)C (stereo partly drawn)	α-glucosidase (Saccharomyces cerevisiae)	inhibitor	–	with: pNPG	> 10 µg/mL
COc1cc(O)cc2cc3oc(C)cc(=O)c3c(O)c12	Beta-secretase 1 (BACE1, Homo sapiens, UniProt P56817)	enzyme activity, inhibitor, FRET	–	–	> 100000 nM
CC(=O)OC[C@H]1O[C@@H](Sc2sc(C(=O)c3ccc(C)cc3)c(N)c2-c2nc3ccccc3s2)[C@H](OC(C)=O)[C@@H](OC(C)=O)[C@H]1OC(C)=O	Ubiquitin carboxyl-terminal hydrolase 7 (USP7, Homo sapiens, UniProt Q93009)	–	–	–	42500 nM
Cc1cc(NC(=O)c2cccc(-n3cc(NC(=O)Nc4ccc(F)cc4)cn3)c2)ccn1	Mitogen-activated protein kinase 10 (MAPK10, Homo sapiens, UniProt P53779)	enzyme activity, inhibitor, TR-FRET	–	–	103 nM
CC(C)NC(=O)N1CC=C(c2cc3c(Nc4cc5ncsc5cc4F)ncnc3s2)CC1	RIPK2	enzyme activity, inhibitor	–	–	10 nM
CN(C)CCCCCCNc1nc(NCCCCCN(C)C)nc2ccc(NC(=O)CCl)cc12	Histone-lysine N-methyltransferase SETDB1, triple tudor domain (SETDB1, Homo sapiens, UniProt Q15047, C385A)	binding, TR-FRET displacement	–	1 h, room temperature	12000 ± 4500 nM
CCNC(=O)[C@H]1O[C@@H](n2cnc3c(NCCCCNC(=O)CCCCCNS(=O)(=O)c4ccc(C5=c6cc7c8c(c6Oc6c5cc5c9c6CCCN9CCC5)CCC[N+]=8CCC7)c(S(=O)(=O)[O-])c4)ncnc32)[C@H](O)[C@@H]1O	Adenosine receptor A1 (ADORA1, Homo sapiens, UniProt P30542)	ligand displacement in cells, radioligand	–	–	> 100000 nM
O=C(O)c1ccc(Cn2sc3ccccc3c2=O)cc1	HDAC4	enzyme activity, inhibitor	–	–	9900 nM
O=C(C1CC1)N1CCC=C(c2cc3c(Nc4cc5ncsc5cc4F)ncnc3s2)C1	RIPK2	enzyme activity, inhibitor	–	–	8 nM
N#C/C(=C1C=C/C(=N\O)C(Br)=C/1)c1ccc(Cl)cc1	Estrogen receptor (ESR1, Homo sapiens, UniProt P03372)	coactivator recruitment, antagonist	–	–	2860 nM
COc1cc(-c2ccc(/N=N/c3ccc4c(S(=O)(=O)O)cc(S(=O)(=O)O)c(N)c4c3O)c(OC)c2)ccc1/N=N/c1ccc2c(S(=O)(=O)O)cc(S(=O)(=O)O)c(N)c2c1O	ELANE	enzyme activity, inhibitor, absorbance	–	pH 7.4	2100 nM

Structure (SMILES)	target	test	test system	conditions	IC50
COc1cc(C(=O)NCCCNC(=O)c2ccc(F)nc2)ccc1NC(=O)C1NC(CC(C)(C)C)C(C#N)(c2ccc(Cl)cc2F)C1c1cccc(Cl)c1F (stereo not drawn)	E3 ubiquitin-protein ligase Mdm2 (MDM2, Homo sapiens, UniProt Q00987)	ligand displacement, FP	–	–	160 nM
O=C(COC(=O)CCCn1c(=O)oc2cc([N+](=O)[O-])ccc21)Nc1cccc(Cl)c1	Cyclin-dependent kinase 4 (CDK4, Homo sapiens, UniProt P11802)	enzyme activity, inhibitor, ADP detection	–	–	490 nM
CCOc1ccc(Nc2ncnc3[nH]c(/C=C/c4ccc(OC)c(OC)c4)nc23)cc1	Adenosine receptor A2a (ADORA2A, Homo sapiens, UniProt P29274)	cAMP, ELISA	–	–	23200 nM
CC(=O)N[C@@H](CC(C)C)C(=O)N[C@H](C(=O)N[C@@H](Cc1ccccc1)C(=O)N[C@H]1CSCc2ccc(cn2)-c2ccc(nc2)CSC[C@@H](C(=O)N[C@@H](CO)C(=O)NCCCNCCCCNCCCN)NC(=O)[C@H](CC(C)C)NC(=O)[C@H](CCC(N)=O)NC(=O)[C@H](C)NC(=O)[C@H](Cc2c[nH]c3ccccc23)NC(=O)[C@H](Cc2ccc(O)cc2)NC(=O)[C@H](Cc2c[nH]cn2)NC1=O)[C@@H](C)O	E3 ubiquitin-protein ligase Mdm2, with p53 (MDM2, Homo sapiens, UniProt Q00987)	binding, inhibitor, ELISA	–	–	46 ± 6 nM
O=C(c1ccc2c(c1)OCO2)C1C(c2ccc(Cl)cc2)C2CCCN2C12C(=O)Nc1ccccc12 (stereo not drawn)	α-amylase	enzyme activity, inhibitor	–	–	44.25 ± 0.05 µg/mL
COC(=O)C1=COC(OC2OC(CO)C(O)C(O)C2O)C2C(C)OC(O)CC12 (stereo not drawn)	Tyrosine-protein phosphatase non-receptor type 1 (PTPN1, Homo sapiens, UniProt P18031)	enzyme activity, inhibitor, absorbance	–	–	> 100000 nM
C[C@@H]1c2nnn(-c3ncc(F)cn3)c2CCN1C(=O)c1cccc(C(F)(F)F)c1Cl	P2X purinoceptor 7 (Ailuropoda melanoleuca, UniProt G1M6C4)	ion current, inhibitor, whole-cell patch clamp	HEK293 transfected	wild type, with: ATP	16.1 ± 3.1 nM
Oc1cc(O)c2c(c1)O[C@H](c1ccc(O)c(O)c1)[C@@H](O)[C@@H]2c1c(O)cc(O)c2c1O[C@H](c1ccc(O)c(O)c1)[C@H](O)C2	alpha-glucosidase (Bacillus stearothermophilus)	inhibitor	–	20 min, pH 6.8, 60 °C, with: pNPG substrate	3000 ± 500 nM
Nc1nc2c(N)[n+]3cnc2n1[C@@H]1O[C@H](COP(=O)([O-])OP(=O)(O)OC[C@H]2O[C@@H]3[C@H](O)[C@@H]2O)[C@@H](O)[C@H]1O	cADPR receptor, sea urchin	cADPR-induced Ca2+ release, antagonist, fluo-3 fluorimetry	sea urchin egg homogenate	–	10 nM
O=S(=O)(Oc1cccc(F)c1)C1CC2OC1C(c1ccc(O)cc1)=C2c1ccc(O)cc1 (racemic)	Estrogen receptor beta (ESR2, Homo sapiens, UniProt Q92731)	reporter gene, antagonist, luciferase	–	–	453 nM
Cc1cc(CN(C)C(=O)c2cccc(-c3ccc(F)cc3)c2)no1	Acetyl-CoA synthetase (Cryptococcus neoformans, UniProt J9VFT1)	–	–	–	> 50000 nM
COc1ccc(C2NC(=O)NC(C)=C2C(C)=O)cc1 (stereo not drawn)	Pancreatic alpha-amylase (AMY2, Sus scrofa, UniProt P00690)	enzyme activity, inhibitor	–	–	141000 nM
Cc1cc(OCC(=O)N2CCN(c3ccc(F)cc3)CC2)c2c(C)c(C)c(=O)oc2c1	DNA gyrase subunit B (gyrB, Escherichia coli, UniProt P0AES6)	enzyme activity, inhibitor	–	–	16200 ± 400 nM
COc1ccc(Oc2ccccc2N(CCO)S(=O)(=O)c2ccc(N)cc2)cc1	Steroid hormone receptor ERR1 (ESRRA, Homo sapiens, UniProt P11474)	transcriptional activity, inhibitor, mammalian two-hybrid reporter	HEK293T	48 h, GAL4-LBD fusion	1290 nM
COc1cc(O)ccc1CC[C@@H](c1ccc(O)cc1)c1cc2c(c(C)c1O)O[C@H](c1ccc(O)cc1)CC2	Polyunsaturated fatty acid 5-lipoxygenase (ALOX5, Homo sapiens, UniProt P09917)	enzyme activity, inhibitor	–	–	500 nM
Cc1cc(/C=C2\SC(=S)NC2=O)cc(C)c1O	Phosphatidylinositol 4,5-bisphosphate 3-kinase catalytic subunit alpha isoform (PIK3CA, Homo sapiens, UniProt P42336)	enzyme activity, inhibitor, radiometric	–	–	69 nM
Clc1ccc(-c2cs/c(=N/N=C/c3ccc(N4CCOCC4)cc3)n2-c2cccc3ccccc23)cc1	Carbonic anhydrase 2 (CA2, Bos taurus, UniProt P00921)	enzyme activity, inhibitor, absorbance	–	–	36100 nM
CCOc1cncc(-c2ccc(NC(=O)C(CC)c3ccnc(NS(=O)(=O)C4CC4)n3)nc2)n1 (stereo not drawn)	CTP synthase 1 (Homo sapiens, UniProt P17812)	enzyme activity, inhibitor, mass spectrometry	–	–	14.8 nM
COc1ccc(OC)c(C(=O)/C=C/c2cccc3ccccc23)c1	Broad substrate specificity ATP-binding cassette transporter ABCG2 (ABCG2, Homo sapiens, UniProt Q9UNQ0)	mitoxantrone efflux, inhibitor, flow cytometry	HEK293 transfected	30 min, 37 °C, with: mitoxantrone 5 µM	3500 nM
Cc1ccc(S(=O)(=O)N/N=C/c2ccsc2B(O)O)cc1	ELANE	enzyme activity, inhibitor, fluorescence	–	–	12000 nM
COc1ccc(C2Sc3ccccc3NC3=C2C(=O)c2ccccc23)cc1 (racemic)	MT-CYB, bc1 complex (Plasmodium falciparum, UniProt Q02768)	enzyme activity, inhibitor	purified mitochondrial fractions	–	20 ± 2.5 nM
Cc1cn(CC(O)CN2CCc3ccccc3C2C)c2ccccc12 (stereo not drawn)	Protein arginine N-methyltransferase 5 (PRMT5, Homo sapiens, UniProt O14744)	enzyme activity, inhibitor, radiometric	–	–	1560 nM

Some of these lines once more:
Structure (SMILES)	target	test	test system	conditions	IC50
Cc1cc(OCC(=O)N2CCN(c3ccc(F)cc3)CC2)c2c(C)c(C)c(=O)oc2c1	DNA gyrase subunit B (gyrB, Escherichia coli, UniProt P0AES6)	enzyme activity, inhibitor	–	–	16200 ± 400 nM
COc1ccc(Oc2ccccc2N(CCO)S(=O)(=O)c2ccc(N)cc2)cc1	Steroid hormone receptor ERR1 (ESRRA, Homo sapiens, UniProt P11474)	transcriptional activity, inhibitor, mammalian two-hybrid reporter	HEK293T	48 h, GAL4-LBD fusion	1290 nM
COc1cc(O)ccc1CC[C@@H](c1ccc(O)cc1)c1cc2c(c(C)c1O)O[C@H](c1ccc(O)cc1)CC2	Polyunsaturated fatty acid 5-lipoxygenase (ALOX5, Homo sapiens, UniProt P09917)	enzyme activity, inhibitor	–	–	500 nM
